# Published values gathered from unrelated publications.
# Protocols differ between the studies behind these lines. Several values in a cell are separate wells, animals, samples, runs or records. ± marks the error that the study gave.
# UniProt P27361, sequence (whole entry, looked up): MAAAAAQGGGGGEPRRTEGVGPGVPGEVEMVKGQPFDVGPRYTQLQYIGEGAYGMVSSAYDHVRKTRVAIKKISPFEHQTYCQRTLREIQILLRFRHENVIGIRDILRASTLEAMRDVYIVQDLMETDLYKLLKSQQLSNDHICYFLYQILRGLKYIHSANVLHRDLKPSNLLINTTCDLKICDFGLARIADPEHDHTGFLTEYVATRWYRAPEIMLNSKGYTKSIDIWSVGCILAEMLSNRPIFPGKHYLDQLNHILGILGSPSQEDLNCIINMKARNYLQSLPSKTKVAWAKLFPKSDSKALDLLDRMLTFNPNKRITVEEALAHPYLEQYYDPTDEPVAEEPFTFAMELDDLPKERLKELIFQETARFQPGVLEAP
# UniProt Q96P68, sequence (whole entry, looked up): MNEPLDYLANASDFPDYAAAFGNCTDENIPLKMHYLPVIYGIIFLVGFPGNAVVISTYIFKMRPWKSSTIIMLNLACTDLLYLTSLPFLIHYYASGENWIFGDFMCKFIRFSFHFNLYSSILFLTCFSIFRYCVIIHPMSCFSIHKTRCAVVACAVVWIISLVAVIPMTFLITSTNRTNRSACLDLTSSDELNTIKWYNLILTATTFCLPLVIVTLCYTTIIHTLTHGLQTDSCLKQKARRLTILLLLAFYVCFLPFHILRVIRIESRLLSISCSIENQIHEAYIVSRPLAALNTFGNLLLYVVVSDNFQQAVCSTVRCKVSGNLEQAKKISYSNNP
# UniProt P55073, sequence (whole entry, unmodified, looked up): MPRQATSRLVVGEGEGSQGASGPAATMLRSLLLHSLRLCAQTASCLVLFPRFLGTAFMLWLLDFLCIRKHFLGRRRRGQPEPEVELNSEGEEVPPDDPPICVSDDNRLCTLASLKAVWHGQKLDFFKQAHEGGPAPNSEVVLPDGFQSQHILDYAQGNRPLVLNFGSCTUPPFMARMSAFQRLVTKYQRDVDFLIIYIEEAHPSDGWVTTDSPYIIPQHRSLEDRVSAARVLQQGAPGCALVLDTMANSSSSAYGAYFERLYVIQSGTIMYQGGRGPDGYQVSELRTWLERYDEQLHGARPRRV
# UniProt Q14416, sequence (whole entry, looked up): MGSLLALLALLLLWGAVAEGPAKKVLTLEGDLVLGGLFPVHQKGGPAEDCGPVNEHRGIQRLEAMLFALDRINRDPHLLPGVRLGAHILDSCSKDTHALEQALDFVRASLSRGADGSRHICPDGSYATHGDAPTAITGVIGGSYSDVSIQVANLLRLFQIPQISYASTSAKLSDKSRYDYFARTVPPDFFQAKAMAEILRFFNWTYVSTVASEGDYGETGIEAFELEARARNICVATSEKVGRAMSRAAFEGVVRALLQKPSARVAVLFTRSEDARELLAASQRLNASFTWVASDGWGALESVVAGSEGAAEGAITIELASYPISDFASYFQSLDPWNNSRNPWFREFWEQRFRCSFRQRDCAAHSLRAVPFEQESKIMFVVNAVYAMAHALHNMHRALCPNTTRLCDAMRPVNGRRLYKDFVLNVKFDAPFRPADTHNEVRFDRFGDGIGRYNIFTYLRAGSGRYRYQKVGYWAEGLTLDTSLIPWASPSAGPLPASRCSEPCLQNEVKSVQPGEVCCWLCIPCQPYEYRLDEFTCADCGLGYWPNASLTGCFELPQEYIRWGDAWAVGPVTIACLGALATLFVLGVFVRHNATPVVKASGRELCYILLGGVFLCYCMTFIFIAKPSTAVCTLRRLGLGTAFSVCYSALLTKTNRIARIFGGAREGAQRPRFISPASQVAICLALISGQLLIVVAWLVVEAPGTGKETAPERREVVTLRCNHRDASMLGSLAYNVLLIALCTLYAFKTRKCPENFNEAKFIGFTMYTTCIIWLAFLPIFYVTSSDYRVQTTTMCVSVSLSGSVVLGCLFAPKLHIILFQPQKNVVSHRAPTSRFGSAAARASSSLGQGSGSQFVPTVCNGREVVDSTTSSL
# UniProt P26358, sequence (whole entry, looked up): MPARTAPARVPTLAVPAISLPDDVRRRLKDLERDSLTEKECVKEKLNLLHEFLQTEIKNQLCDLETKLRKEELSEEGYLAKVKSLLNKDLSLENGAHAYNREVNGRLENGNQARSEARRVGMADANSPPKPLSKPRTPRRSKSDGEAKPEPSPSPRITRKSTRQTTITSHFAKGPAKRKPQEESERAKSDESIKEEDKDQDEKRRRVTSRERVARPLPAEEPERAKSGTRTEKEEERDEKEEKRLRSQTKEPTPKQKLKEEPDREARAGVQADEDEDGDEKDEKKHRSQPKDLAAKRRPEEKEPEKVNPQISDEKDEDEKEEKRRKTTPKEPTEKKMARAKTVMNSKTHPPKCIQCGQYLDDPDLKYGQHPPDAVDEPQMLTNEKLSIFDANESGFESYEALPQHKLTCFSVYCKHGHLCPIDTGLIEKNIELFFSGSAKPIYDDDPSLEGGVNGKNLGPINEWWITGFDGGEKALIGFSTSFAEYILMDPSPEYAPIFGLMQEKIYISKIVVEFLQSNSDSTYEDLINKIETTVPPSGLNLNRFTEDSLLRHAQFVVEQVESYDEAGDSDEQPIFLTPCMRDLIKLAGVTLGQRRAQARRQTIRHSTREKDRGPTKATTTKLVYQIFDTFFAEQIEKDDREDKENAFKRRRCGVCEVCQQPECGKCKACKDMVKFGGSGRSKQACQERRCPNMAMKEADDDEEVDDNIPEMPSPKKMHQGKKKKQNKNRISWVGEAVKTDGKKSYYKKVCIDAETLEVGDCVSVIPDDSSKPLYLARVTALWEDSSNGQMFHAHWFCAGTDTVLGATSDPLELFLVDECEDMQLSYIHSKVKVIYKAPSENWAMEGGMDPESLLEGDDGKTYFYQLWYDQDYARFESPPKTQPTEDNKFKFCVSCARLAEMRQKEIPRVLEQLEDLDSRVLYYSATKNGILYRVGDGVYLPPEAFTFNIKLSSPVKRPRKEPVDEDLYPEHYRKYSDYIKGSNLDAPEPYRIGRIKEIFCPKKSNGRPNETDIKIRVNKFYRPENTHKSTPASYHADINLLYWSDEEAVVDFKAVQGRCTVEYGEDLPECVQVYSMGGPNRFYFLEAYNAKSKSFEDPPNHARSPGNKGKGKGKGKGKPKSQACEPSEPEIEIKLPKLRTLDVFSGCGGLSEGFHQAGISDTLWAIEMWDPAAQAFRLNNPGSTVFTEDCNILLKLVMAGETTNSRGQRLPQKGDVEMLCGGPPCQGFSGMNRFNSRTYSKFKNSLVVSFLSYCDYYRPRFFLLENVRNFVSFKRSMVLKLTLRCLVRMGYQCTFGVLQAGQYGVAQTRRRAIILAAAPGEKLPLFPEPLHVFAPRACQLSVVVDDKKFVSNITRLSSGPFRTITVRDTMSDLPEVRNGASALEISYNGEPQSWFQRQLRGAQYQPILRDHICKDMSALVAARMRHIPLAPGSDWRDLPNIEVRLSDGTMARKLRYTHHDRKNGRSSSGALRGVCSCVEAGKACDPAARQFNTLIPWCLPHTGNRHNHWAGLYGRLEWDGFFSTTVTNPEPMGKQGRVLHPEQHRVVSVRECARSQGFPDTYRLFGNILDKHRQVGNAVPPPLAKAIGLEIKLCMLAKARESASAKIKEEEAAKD
# UniProt Q02153, sequence (whole entry, unmodified, looked up): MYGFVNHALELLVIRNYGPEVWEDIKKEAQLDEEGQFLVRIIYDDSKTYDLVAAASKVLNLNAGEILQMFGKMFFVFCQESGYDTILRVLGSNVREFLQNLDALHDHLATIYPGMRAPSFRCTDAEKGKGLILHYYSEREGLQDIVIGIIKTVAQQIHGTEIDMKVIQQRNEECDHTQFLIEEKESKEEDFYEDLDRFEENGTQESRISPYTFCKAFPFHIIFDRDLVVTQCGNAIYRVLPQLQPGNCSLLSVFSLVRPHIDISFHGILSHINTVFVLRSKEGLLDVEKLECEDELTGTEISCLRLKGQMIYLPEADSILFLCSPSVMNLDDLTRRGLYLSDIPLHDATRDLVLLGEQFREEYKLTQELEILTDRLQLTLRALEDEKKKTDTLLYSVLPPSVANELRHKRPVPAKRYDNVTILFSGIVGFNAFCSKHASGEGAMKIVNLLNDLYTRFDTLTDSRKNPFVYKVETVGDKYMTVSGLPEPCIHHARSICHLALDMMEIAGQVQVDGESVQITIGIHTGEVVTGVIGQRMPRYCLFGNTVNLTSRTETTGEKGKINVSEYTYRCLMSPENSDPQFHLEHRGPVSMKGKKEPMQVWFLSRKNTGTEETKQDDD
# UniProt O95983, sequence (whole entry, looked up): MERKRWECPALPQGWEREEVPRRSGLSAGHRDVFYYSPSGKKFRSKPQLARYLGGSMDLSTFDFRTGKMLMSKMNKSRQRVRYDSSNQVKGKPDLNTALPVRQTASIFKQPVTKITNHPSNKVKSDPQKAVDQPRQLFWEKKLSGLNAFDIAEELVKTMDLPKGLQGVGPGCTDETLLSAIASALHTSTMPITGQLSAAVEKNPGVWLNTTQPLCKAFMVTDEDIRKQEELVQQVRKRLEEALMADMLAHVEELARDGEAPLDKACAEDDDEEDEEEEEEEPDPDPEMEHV
# UniProt P08172, sequence (whole entry, looked up): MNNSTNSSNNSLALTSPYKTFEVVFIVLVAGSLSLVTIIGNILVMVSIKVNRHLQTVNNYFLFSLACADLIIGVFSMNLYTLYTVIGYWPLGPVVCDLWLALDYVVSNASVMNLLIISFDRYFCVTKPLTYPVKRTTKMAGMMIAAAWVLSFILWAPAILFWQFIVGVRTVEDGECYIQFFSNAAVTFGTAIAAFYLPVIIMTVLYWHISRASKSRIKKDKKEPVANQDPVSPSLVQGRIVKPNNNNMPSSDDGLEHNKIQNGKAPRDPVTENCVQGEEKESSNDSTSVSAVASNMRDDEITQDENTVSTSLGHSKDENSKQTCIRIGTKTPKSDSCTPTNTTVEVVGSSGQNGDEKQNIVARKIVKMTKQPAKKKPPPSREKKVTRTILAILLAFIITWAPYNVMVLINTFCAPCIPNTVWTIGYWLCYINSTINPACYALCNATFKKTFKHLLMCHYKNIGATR
Compound,target,assay,system,conditions,how to read,measurement,value
CC[C@H](C)[C@H](NC(C)=O)C(=O)N[C@@H](CCC(=O)O)C(=O)N[C@H](C(=O)N[C@H](C=O)CC(=O)O)[C@@H](C)O,"Caspase-8 (CASP8, Homo sapiens, UniProt Q14790)",,,,,Hill slope,-1.22
NC(=O)c1cc[n+](CC2=C(C(=O)O)N3C(=O)[C@@H](NC(=O)[C@@H](c4ccccc4)S(=O)(=O)[O-])[C@H]3SC2)cc1,"Penicillin-binding protein 2X (Streptococcus pneumoniae R6, UniProt P59676)",inhibitor,Streptococcus pneumoniae,,,kinact/KI,1000 ± 6 M⁻¹ s⁻¹
N#C[C@H](O[C@@H]1O[C@H](CO[C@@H]2O[C@H](CO)[C@@H](O)[C@H](O)[C@H]2O)[C@@H](O)[C@H](O)[C@H]1O)c1ccccc1,"BGLU7 (Oryza sativa, UniProt Q75I93)",substrate,,,,Km,5.86 ± 0.82 mM
COc1cc(N)c(Cl)cc1C(=O)NC1CN2CCC1CC2 (stereo not drawn),"Adhesion G-protein coupled receptor F3 (ADGRF3, Homo sapiens, UniProt Q8IZF5)","β-arrestin recruitment, TANGO luminescence, measured: GPR113",,concentration not given,relative to: basal luminescence,log2 fold change,0.524
[2H]c1c([2H])c([C@]2([2H])CCCN2C(=O)C(C)(C)Oc2ccc3cn[nH]c3c2)c([2H])c([2H])c1C([2H])([2H])[2H],"MELK (Homo sapiens, UniProt Q14680)",KINOMEscan,,1 µM,relative to: DMSO control,remaining binding,85%
CN(C)C(=O)c1cc2cnc(Nc3ccc(C(=O)NCCCCCCOc4cccc5c4C(=O)N(C4CCC(=O)NC4=O)C5=O)cc3)nc2n1C1CCCC1 (stereo not drawn),"Aurora kinase A (AURKA, Homo sapiens, UniProt O14965)",degrader,MCF7,,,Dmax,94%
O=C(O)c1ccc(CN2C(=O)CN(C(=O)c3ccco3)c3cc(-c4ccccc4)c(Oc4ccc(C(=O)O)cc4)cc32)cc1,"GUCY1B1, with alpha-1 subunit (Homo sapiens, UniProt Q02153, H105A)",,,concentration not given,,soluble guanylate cyclase activity,542 ± 55.2 nmol cGMP/min/mg
CN(C(=O)n1cnc(-c2ccc[n+]([O-])c2)c1)C1CCCCC1,"GABAB1B receptor, human",binding,,"50 µM, added: [3H]CGP-54626",,inhibition,15%
Clc1cc2c(cc1Cl)Oc1cc(Cl)c(Cl)cc1O2,"Uncharacterized protein (Takifugu rubripes, UniProt Q4JHL5)","reporter gene, agonist, dual-luciferase",COS-7,24 h,,EC80,1.43 ± 0.73 nM
NC(=O)c1cccc(-c2cc(OC(=O)NC3CCCCC3)ccc2O)c1,"Faah (Mus musculus, UniProt O08914)","liver enzyme activity, inhibitor",mouse,oral,,ED50,0.3 mg/kg
CCCC(NCCc1cc(OC)c(C#N)cc1OC)c1ccccc1O.Cl (stereo not drawn),"HTR2C (Homo sapiens, UniProt P28335)","Gq dissociation, agonist, BRET",,10 µM,relative to: 5-HT,activity,~44%
Nc1ncc(-c2nc(N3CCOCC3)nc(N3CCOCC3)n2)c(C(F)F)n1,"STK32B (Homo sapiens, UniProt Q9NY57)",KINOMEscan,,10 µM,,remaining binding,90%
C[C@H]1CN(c2n[nH]c3nc(N[C@H]4CC[C@H](NS(=O)(=O)CCC(F)(F)F)CC4)ncc23)CCO1,"Methyl-CpG-binding domain protein 3 (MBD3, Homo sapiens, UniProt O95983)","Kinobeads competition, measured: MBD3",,"0.8 µM, unit not given",relative to: vehicle,remaining binding,1.24
CCCC(=O)CC(=O)N[C@H]1CCOC1=O,"qscR (Pseudomonas aeruginosa, UniProt G3XD77)","protein-ligand complex stability, differential scanning fluorimetry",,,,melting temperature,32 °C
CCCOC/C(=N\c1ccc(Cl)cc1C(F)(F)F)n1ccnc1,"Thyroxine 5-deiodinase (DIO3, Homo sapiens, UniProt P55073, C168G)",inhibitor,,C168G variant,,Hill slope,-0.744
COc1cc2c(NC3CCN(C)CC3)cc(-c3ccc(C)o3)nc2cc1OCCCN1CCCC1,"DNMT1 (Homo sapiens, UniProt P26358)",enzyme activity,,3703.70 nM,,inhibition,51%
CCN(CC)CCCC[C@H](NC(=O)[C@H](CC(C)C)NC(=O)[C@H](C)NC(=O)[C@H](Cc1ccccc1)NC(=O)c1ccc(C(C)(C)C)cc1)C(=O)N[C@@H](CO)C(=O)OC,"CHRM2 (Homo sapiens, UniProt P08172)","antagonist, radioligand binding",,10 µM,relative to: control binding,specific binding,106%
COc1ccc(N2C(=O)N(c3c(C)cccc3Cl)Cc3cnc(Nc4ccc(C5CCN(C)CC5)cc4OC)nc32)nc1,"EGFR (Homo sapiens, UniProt P00533)",kinase activity,,0.5 µM,,inhibition,85%
O=C(c1ccc(Cl)cc1)N1CCN2C(=O)N(OC(=O)N3CCOc4ccccc43)C(=O)C2C1 (stereo not drawn),"OVCA2 (Homo sapiens, UniProt Q8WZ82)","enzyme activity, inhibitor, MS-based ABPP",SW-620 in situ,"10 µM, 2 h, 37 °C","relative to: compound over DMSO, lower = stronger inhibition",median ratio,1.08
O=C[C@H](O)COP(=O)(O)O,"TPI1 (Saccharomyces cerevisiae, UniProt P00942, Y208F)","substrate, GPDH/NADH-coupled",,"pH 5.7, 25 °C",,Km,~18 mM
CN(CC(=O)O)C(=N)NP(=O)(O)O,"CKMT1A (Homo sapiens, UniProt P12532)","substrate, Kinase-Glo luminescence",,"pH 7.0, reverse reaction, WT mutant, added: second substrate in excess",,kcat,39 ± 13 s⁻¹
CCOC(=O)COc1ccc2c(=O)c3ccccc3oc2c1,"ache (Electrophorus electricus, UniProt O42275)",enzyme activity,,"1.68 µM, added: substrate 0.86 mM",higher = faster reaction,reaction velocity,0.001 a.u.
CC[C@@H](C)[C@@H](NC(=O)[C@@H](Cc1ccc(O)cc1)NC(=O)[C@H]1CCCN1C(=O)[C@@H](CCCNC(=N)N)NC(=O)[C@H](N)Cc1c[nH]cn1)C(=O)N[C@H](C)C(=O)N[C@H](Cc1c[nH]cn1)C(=O)N[C@H](CCCNC(=N)N)C(=O)N[C@H](CCCCNC(=O)c1cccc(S(=O)(=O)F)c1)C(=O)N[C@H](Cc1ccc(O)cc1)C(=O)N[C@H](CO)C(=O)N[C@H](Cc1ccccc1)C(N)=O,"Transferrin receptor protein 1 (Tfrc, Mus musculus, UniProt Q62351)",flow cytometry,B16,"6 h, unit not given",relative to: 0 h,surface TFRC expression,0.57
Cc1ncsc1-c1ccc(CNC(=O)[C@@H]2C[C@@H](O)CN2C(=O)[C@@H](NC(=O)COCCOCCOCCNC(=O)C[C@@H]2N=C(c3ccc(Cl)cc3)c3c(sc(C)c3C)-n3c(C)nnc32)C(C)(C)C)cc1,VHL-ElonginB-ElonginC complex human,"ternary complex formation, fluorescence polarization",,added: SMARCA4 bromodomain,,cooperativity factor,1.7
COC(=O)[C@@]1(O)C[C@H]2O[C@]1(C)n1c3ccccc3c3c4c(c5c6ccccc6n2c5c31)C(=O)NC4,"MAPK3 (Homo sapiens, UniProt P27361)",ADP-Glo,,"35 µM, added: MBP substrate",,kinase activity,122% and 108% and 81.6%
O=C(Nc1cnccc1Cl)N1CCN(Cc2ccc3c(c2)OC(F)(F)O3)CC1,"GRM2 (Homo sapiens, UniProt Q14416)",radioligand binding,,"50 µM, added: [3H]LY341495",,inhibition of binding,4%
CN1CCN(c2cc(-c3ccncc3)c(-c3ccc4ccccc4c3)nn2)CC1,"OXGR1 (Homo sapiens, UniProt Q96P68)","agonist, FLIPR",,12.5 µM,,activation,0.4%

# Some of these lines once more:
Compound,target,assay,system,conditions,how to read,measurement,value
[2H]c1c([2H])c([C@]2([2H])CCCN2C(=O)C(C)(C)Oc2ccc3cn[nH]c3c2)c([2H])c([2H])c1C([2H])([2H])[2H],"MELK (Homo sapiens, UniProt Q14680)",KINOMEscan,,1 µM,relative to: DMSO control,remaining binding,85%
COc1cc2c(NC3CCN(C)CC3)cc(-c3ccc(C)o3)nc2cc1OCCCN1CCCC1,"DNMT1 (Homo sapiens, UniProt P26358)",enzyme activity,,3703.70 nM,,inhibition,51%
